Experimental data pooled from the literature.
Each numbered part is a random draw from the data of one study; scales do not carry over between parts.

Study 1
Target: RNA binding protein fox-1 homolog 2, RRM domain, GST-SBP tag (RBFOX2, Homo sapiens, UniProt O43251-10, residues 100-194)
Method: RNA Bind-n-Seq
Form: RNA
Matrix: in vitro
Concentration: 365 nM
Notes: natural RNA segment, single round, ends assumed
Reference: no-protein control
Reading: higher = stronger binding
Endpoint: RBNS enrichment (R)
Residues (chain): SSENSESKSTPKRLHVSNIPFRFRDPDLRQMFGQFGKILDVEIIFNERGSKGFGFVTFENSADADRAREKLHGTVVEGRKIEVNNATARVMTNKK
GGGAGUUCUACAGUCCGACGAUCAGAGUUCACUGUUGUACACAGUCUGUUUUCUAUUUGUUAAGAAAAACUACAGCAUCAUUGCAUACUUCUUGAUGGUAAUAAAUUUGAAUAAUCAAGAUUUCUUACACACUUGGAAUUCUCGGGUGCCAA: 1.11
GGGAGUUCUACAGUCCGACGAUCACCUAAAGGAAUGGAAUGAUGCUGUUUUUGUUUUGAGUUUGACCUUAACCUUGCUAUGUCUCUCCUUUGAAUAAUGGGGCUUAAAAGAAUAAUGAACAUGGAAUUUGAAUUGGAAUUCUCGGGUGCCAA: 1.45
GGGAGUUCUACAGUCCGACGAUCCCCCACCAUACAAGAGUUUUAGGUGAUUGAGUGGGUGGAACCAGCUGGAGCCAGGUGGGAGGGGCCUUUACAUUGCCAGCAGGGCCCCAAAGAAUUGAGAUUGUGUAUGGUGGAAUUCUCGGGUGCCAA: 1.25
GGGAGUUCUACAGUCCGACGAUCCUUCGAAGGUACGGAUGAGGAGAAAUCUUCUAUGAGCAACUCCGUGCUGUCUGCCUAGGAAUCCUUCAGUGGUAUGGGACACUCCUCAAGUGAGCCAAAUGCCCGUUCUUUGGAAUUCUCGGGUGCCAA: 0.248
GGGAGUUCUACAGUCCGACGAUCUGUAACCUCAACUUCCAAAGUUUAUAUUUUCUUGAAAUGAUGGAUCUAUUGCUCAACAGUCCCUGUCAUCCUUAAGUGACUUCUGGGUUUCCCACAAAUUCCUCACUUUUUGGAAUUCUCGGGUGCCAA: 0.507
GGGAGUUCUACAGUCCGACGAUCGCCUGCCCACCCUUCGCACAUACACCCGUGGCAGGGAGUGUGGAACUGAAGACUGGCUGGAGGCACUGCAGAAGCAGCCCUUGGCUUUCUACUCCCACACUUGCUUGUGAUGGAAUUCUCGGGUGCCAA: 0.811
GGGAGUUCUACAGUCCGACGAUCUUAGAUGAUGUGACCUCUAAUAUUUAUCUAAUAAAUAUGUAUUCAGAUGAAACCUGUAUAUUAGGUGUUCAUGUGGUUAUUUUGUAUUUAAAGAUCAAAUUAUUUGAUUAUGGAAUUCUCGGGUGCCAA: 0.42
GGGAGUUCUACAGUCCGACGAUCUAGCCUAUGACCCAAGACUGUUUGUGGCCUUAGGAACAAUUGCUUAAGCAGGUCAAGCAUUUUGAAUUUCAAUGUAGGCCUUCAGGAUCUUCUCACAUGAGGUCAACUGCUGGAAUUCUCGGGUGCCAA: 0.419
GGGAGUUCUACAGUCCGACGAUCGUAACAUUUACCCACAACCUGGCUCGGCACUGGAUGAAAUUCUACAAGGUGAGUGGAGUGUAAAACUGGUCAGCCCUUGGAGAGACUUCUUGGUUGUGUCACCCCCAAAGUGGAAUUCUCGGGUGCCAA: 0.339

Study 2
Target: Histone acetyltransferase KAT6A, winged helix 1, GST fusion (KAT6A, Homo sapiens, UniProt Q92794, residues 1-85)
Method: protein binding microarray
Form: double-stranded DNA, one strand shown
Matrix: in vitro
Concentration: not given
Notes: 8-mer, flanks averaged, mean of 2 arrays, mostly near background
Reference: not given
Reading: higher = stronger binding
Endpoint: E-score
Target sequence (chain): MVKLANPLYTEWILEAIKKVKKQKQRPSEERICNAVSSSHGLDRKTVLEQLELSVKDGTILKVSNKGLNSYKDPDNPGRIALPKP
CTCTTGTC: -0.177
ATTTACAA: -0.148
AACTCAGC: 0.0691
ATTACCCG: 0.256
ATTTATGC: -0.14
AGTGCATC: -0.0581
CTGGTGCC: -0.046

Study 3
Target: Sal-like protein 4, full length isoform A (SALL4, Homo sapiens, UniProt Q9UJQ4, residues 1-1053)
Chain of UniProt Q9UJQ4 (whole entry, looked up): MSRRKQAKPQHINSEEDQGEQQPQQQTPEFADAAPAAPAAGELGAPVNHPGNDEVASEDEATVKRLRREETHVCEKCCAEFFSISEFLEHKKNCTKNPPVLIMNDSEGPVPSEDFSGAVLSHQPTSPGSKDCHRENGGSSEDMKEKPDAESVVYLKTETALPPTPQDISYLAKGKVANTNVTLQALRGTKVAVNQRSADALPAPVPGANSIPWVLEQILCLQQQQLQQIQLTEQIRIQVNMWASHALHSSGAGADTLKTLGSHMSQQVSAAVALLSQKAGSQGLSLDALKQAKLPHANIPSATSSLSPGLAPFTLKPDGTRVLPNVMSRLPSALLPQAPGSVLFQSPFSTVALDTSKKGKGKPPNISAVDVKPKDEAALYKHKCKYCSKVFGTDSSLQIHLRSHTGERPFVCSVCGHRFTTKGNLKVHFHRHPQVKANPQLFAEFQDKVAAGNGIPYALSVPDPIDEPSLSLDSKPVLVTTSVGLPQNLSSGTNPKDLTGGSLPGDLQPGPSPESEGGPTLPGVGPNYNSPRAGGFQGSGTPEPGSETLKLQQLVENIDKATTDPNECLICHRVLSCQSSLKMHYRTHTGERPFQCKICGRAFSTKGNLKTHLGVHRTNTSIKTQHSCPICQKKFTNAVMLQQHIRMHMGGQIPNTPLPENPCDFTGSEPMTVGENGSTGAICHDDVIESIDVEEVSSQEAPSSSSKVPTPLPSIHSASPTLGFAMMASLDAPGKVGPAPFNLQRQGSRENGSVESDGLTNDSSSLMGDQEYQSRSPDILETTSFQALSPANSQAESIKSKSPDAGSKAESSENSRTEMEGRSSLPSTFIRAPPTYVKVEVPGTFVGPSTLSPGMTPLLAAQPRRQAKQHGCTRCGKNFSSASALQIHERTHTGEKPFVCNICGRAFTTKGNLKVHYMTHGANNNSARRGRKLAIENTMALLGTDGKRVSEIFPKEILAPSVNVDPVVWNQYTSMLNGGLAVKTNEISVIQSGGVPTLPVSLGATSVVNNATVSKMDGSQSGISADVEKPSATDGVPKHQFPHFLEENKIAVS
Method: universal PBM
Form: double-stranded DNA, one strand shown
Matrix: in vitro
Concentration: 600 nM
Notes: 8-mer, flanks averaged, mean of replicates
Reading: higher = stronger binding
Endpoint: E-score
ACCTCTAC: 0.0373
ATAGGGAG: 0.012
GCAGTGGA: -0.00522
AGCACACC: -0.178
TGAAGAAA: 0.176
CAGAGAAC: -0.0422
CCAACAAA: 0.137
GACGACCC: -0.323
CGGGCGGA: -0.318

Single results of other studies
PhoQ, residues 284 288 289 292 302 303 AMDMFI
fold induction (PhoP, residues 12 14 15 18 19 SQCLL (Escherichia coli, UniProt P23836); Sort-seq, refers to: YFP reporter; E. coli; PhoQ-PhoP variant library, added: 10 µM Mg2+; reference: high Mg2+ state, higher = stronger signaling): 1.87
